Experimental data of several laboratories.
Organism: Enterobacter cloacae

SMILES | test | test system | MIC
CC(C)C[C@H](NC(=O)[C@H](CC(N)=O)NC(=O)[C@H](CCCNC(=N)N)NC(=O)[C@@H](CC(C)C)NC(=O)[C@H](Cc1ccccc1)NC(=O)[C@H](CC(=O)O)NC(=O)[C@H](CCCCN)NC(=O)[C@@H](CC(C)C)NC(=O)[C@H](CCCNC(=N)N)NC(=O)[C@H](CCC(N)=O)NC(=O)[C@@H](NC(=O)[C@@H](CC(C)C)NC(=O)[C@H](CCCNC(=N)N)NC(=O)[C@H](CCCCN)NC(=O)[C@H](Cc1ccc(-c2ccccc2)cc1)NC(=O)CN)C(C)C)C(=O)N[C@H](C(N)=O)C(C)C | broth microdilution | B2366-12 | 12.5 µM
c1ccc(CN2CCOCCOCCN(CCCCCCCCCCN3CCOCCOCCN(CCCCCCCCCCN4CCOCCOCCN(Cc5ccccc5)CCOCCOCC4)CCOCCOCC3)CCOCCOCC2)cc1 | microbial growth | – | 26 µM
CO[C@@H](C(N)=O)[C@H](NC(=O)c1ccc(NC(=O)c2ccc([N+](=O)[O-])cc2)cc1)C(=O)Nc1ccc(C(=O)Nc2ccc(C(=O)Nc3ccc(C(=O)O)cc3)c(O)c2OC(C)C)cc1 | microbial growth | DSM30054 | > 64 µg/mL
NC[C@@H]1O[C@H](O[C@H]2[C@@H](O)[C@H](O[C@@H]3[C@@H](O)[C@H](N)C[C@H](N)[C@H]3O[C@H]3O[C@H](CO)[C@@H](CCO)[C@H](O)[C@H]3N)O[C@@H]2CO)[C@H](N)[C@@H](O)[C@@H]1O | – | AG290 | 1 to 2 µg/mL
CC[P+](CC)(CC)[Au-][S]c1ccc(SCC(=O)N[C@H]2[C@H](OC(C)=O)O[C@H](COC(C)=O)[C@@H](OC(C)=O)[C@@H]2OC(C)=O)cc1 | – | NCTC 13405 | 152 µM
c1ccc(CN2CCOCCOCCN(CCCCCCCCCCCCCCN3CCOCCOCCN(CCCCCCCCCCCCCCN4CCOCCOCCN(Cc5ccccc5)CCOCCOCC4)CCOCCOCC3)CCOCCOCC2)cc1 | microbial growth | – | 24 µM
NC[C@@H]1O[C@H](O[C@H]2[C@@H](O)[C@H](O[C@@H]3[C@@H](O)[C@H](N)C[C@H](N)[C@H]3O[C@H]3O[C@H](CO)[C@@H](SCCF)[C@H](O)[C@H]3N)O[C@@H]2CO)[C@H](N)[C@@H](O)[C@@H]1O | – | AG290 | 4 µg/mL
CC(C)C[C@H](NC(=O)[C@H](CC(N)=O)NC(=O)[C@H](CCCNC(=N)N)NC(=O)[C@@H](CC(C)C)NC(=O)[C@H](Cc1ccc2ccccc2c1)NC(=O)[C@H](CC(=O)O)NC(=O)[C@H](CCCCN)NC(=O)[C@@H](CC(C)C)NC(=O)[C@H](CCCNC(=N)N)NC(=O)[C@H](CCC(N)=O)NC(=O)[C@@H](NC(=O)[C@@H](CC(C)C)NC(=O)[C@H](CCCNC(=N)N)NC(=O)[C@H](CCCCN)NC(=O)[C@H](Cc1ccccc1)NC(=O)CN)C(C)C)C(=O)N[C@H](C(N)=O)C(C)C | broth microdilution | B2366-12 | 12.5 µM

Some of these lines once more:
SMILES | test | test system | MIC
NC[C@@H]1O[C@H](O[C@H]2[C@@H](O)[C@H](O[C@@H]3[C@@H](O)[C@H](N)C[C@H](N)[C@H]3O[C@H]3O[C@H](CO)[C@@H](CCO)[C@H](O)[C@H]3N)O[C@@H]2CO)[C@H](N)[C@@H](O)[C@@H]1O | – | AG290 | 1 to 2 µg/mL
